Published values gathered from unrelated publications.
Protocols differ between the studies behind these lines. ± marks the error that the study gave.
Cell line: A-375

SMILES | observed | mode | method | tested at | time | quantity | result
Cc1cnc(NC2CCOCC2)nc1-n1cnc(C(=O)NC(CN)c2cc(F)cc(Cl)c2)c1 (stereo not shown) |  |  | flow cytometry | 1 µM | 24 h | S phase cells | 5.5%
Cc1ccc(C=NNC(=O)C2CC(=O)N(c3ccc(F)cc3F)C2)cc1 (stereo not shown) | cell viability |  | MTT |  | 72 h | EC50 | 1 ± 0.2 µM
C=C(F)C(=O)N1CCN(c2nc(OC[C@@H]3CCCN3C)nc3c2CCN(c2cccc4cccc(Cl)c24)C3)C[C@@H]1CC#N | cell viability |  | 3D CellTiter-Glo |  |  | IC50 | > 1 µM
O=C(NOC[C@H](O)CO)c1ccc(F)c(F)c1Nc1ccc(I)cc1F |  |  |  | 0.625 µM | 72 h | viability | 14.2%
CCN(N=Cc1ccc(Br)cc1)C(=O)C1CC(=O)N(c2ccc(F)cc2F)C1 (stereo not shown) | cell viability |  | MTT |  | 72 h | EC50 | 36.6 ± 4 µM
COc1cc2ncnc(Nc3ccc(Oc4ccccc4)cc3C)c2cc1OC |  |  |  | 3 µM | 72 h | viability | 75.3%
O=C(NN=Cc1ccc(Br)cc1)C1CC(=O)N(c2ccc(F)cc2F)C1 (stereo not shown) | cell viability |  | MTT |  | 72 h | EC50 | 14.5 ± 1.5 µM
COc1cc(C(=O)c2nc(-c3cccc4c3CCN4)c[nH]2)cc(OC)c1OC | cell proliferation |  | MTS |  | 72 h | IC50 | 0.0224 ± 0.0026 µM
Cn1cnc2c(F)c(Nc3ccc(Br)cc3F)c(C(=O)NOCCO)cc21 |  |  |  | 5 µM | 72 h | viability | 17.9%
CCn1cc(-c2cc(Cn3ccnc3)cc3c2CCN([C@H](c2cc(OC)ccn2)C2CC2)C3=O)c(C(F)(F)F)n1 | cell growth | inhibitor |  |  | 120 h | EC50 | > 30 µM

A few entries again:
SMILES | observed | mode | method | tested at | time | quantity | result
Cc1ccc(C=NNC(=O)C2CC(=O)N(c3ccc(F)cc3F)C2)cc1 (stereo not shown) | cell viability |  | MTT |  | 72 h | EC50 | 1 ± 0.2 µM
